Values quoted from earlier work that unrelated publications cite.
Compare with care: the assays were run in different laboratories. ± marks the error that the study gave.
Chain of UniProt Q99759 (whole entry, looked up): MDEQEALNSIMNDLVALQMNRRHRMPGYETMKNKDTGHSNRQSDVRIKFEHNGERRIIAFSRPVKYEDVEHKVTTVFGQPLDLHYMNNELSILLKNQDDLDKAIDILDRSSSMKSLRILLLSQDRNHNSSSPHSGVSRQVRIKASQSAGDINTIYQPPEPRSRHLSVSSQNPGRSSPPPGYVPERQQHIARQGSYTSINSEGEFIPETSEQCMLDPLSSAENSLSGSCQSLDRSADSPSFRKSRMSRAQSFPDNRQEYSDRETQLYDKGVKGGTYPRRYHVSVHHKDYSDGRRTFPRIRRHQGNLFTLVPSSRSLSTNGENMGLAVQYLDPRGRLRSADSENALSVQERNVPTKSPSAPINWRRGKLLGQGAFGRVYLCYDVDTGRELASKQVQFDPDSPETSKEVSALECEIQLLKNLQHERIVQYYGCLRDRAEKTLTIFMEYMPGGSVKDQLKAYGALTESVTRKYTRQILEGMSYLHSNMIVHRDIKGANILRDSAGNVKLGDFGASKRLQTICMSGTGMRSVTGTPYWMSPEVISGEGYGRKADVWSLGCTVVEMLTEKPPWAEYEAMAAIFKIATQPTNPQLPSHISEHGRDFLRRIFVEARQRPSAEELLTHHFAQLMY

`COC(=O)C1=C(C)NC(C)=C(C(=O)OC)C1c1c(-c2cc(OC)ccc2OC)nc2sc(C)cn12` gave an EC50 of 1430 nM (negative inotropic effect; guinea pig, isolated left atrium).
`C[C@@]12C[C@@]3(O)O[C@@H](O1)[C@]1(COC(=O)c4ccccc4)[C@H]3C[C@@]12O[C@@H]1O[C@H](CO)[C@@H](O)[C@H](O)[C@H]1O` has an effective dose of 36 mmol/L (ADP-induced platelet aggregation, inhibitor; rabbit blood).
For `O=C(c1ccc(Cl)cc1)N(Cc1ccccc1)C1CCCCC1`, cytokine release read “decreased” (measured: IL-1β, IL-6, TNF-α; mouse, LPS-induced ALI; dose not given).
For `Cc1cc(C)c(CNC(=O)c2cc(Cl)c3c(c2C)O[C@@](C)([C@H]2CC[C@H](N(C)C)CC2)O3)c(=O)[nH]1`, “median duration of response” read 56 weeks (relapsed/refractory PTCL patients; dose not given).
`O=C(O)c1ccc(O)c(O)c1` gave an effective dose of 5 mg/kg (anti-inflammatory effect; lung injury, acute, LPS-induced mouse; intraperitoneal).
For `COC(=O)C1=C(C)NC(C)=C(C(=O)OC)C1c1c(Cl)nc2sc(C)c(C)n12`, “decrease in atrial rate” read 29 ± 1.9% (guinea pig right atrium; 5 µM, spontaneously beating; reference: control).
Under “median overall survival”, `O=NN(CCCl)C(=O)NC1CCCCC1` is recorded as 5.6 months (patients, recurrent glioblastoma; dose not given, monotherapy).
The response rate of `Cn1cncc1[C@@](N)(c1ccc(Cl)cc1)c1ccc2c(c1)c(-c1cccc(Cl)c1)cc(=O)n2C` is reported as 11% (human adults, relapsed/refractory AML; dose not given).
`COC(=O)C1=C(C)NC(C)=C(C(=O)OC)C1c1c(-c2cccc(OC)c2)nc2sccn12`: “decrease in atrial rate” 94 ± 2% (guinea pig right atrium; 5 µM, spontaneously beating; reference: control).
`CN(C)C(=O)c1cc2cnc(Nc3ccc(N4CCNCC4)cn3)nc2n1C1CCCC1` has a progression-free survival of 9.7 weeks (human recurrent glioblastoma; 600 mg/day).
`COC(=O)C1=C(C)NC(C)=C(C(=O)OC)C1c1c(Cl)nc2sc(Cl)cn12`: “decrease in developed tension” 77 ± 2.9% (guinea pig left atrium; 50 µM, paced at 1 Hz; reference: control).
`CCOCC1(COCC)CCC(c2n[nH]cc2CN(C)CCNC)CC1`: tumour growth “inhibited” (DLBCL and pancreatic adenocarcinoma, mouse xenograft; dose not given).
For `Nc1cccc2c1C(=O)N(C1CCC(=O)NC1=O)C2=O` (stereo not drawn), “minimal response or better rate” read 25% (relapsed refractory multiple myeloma patients; dose not given, independent adjudication).
Under “median time to progression”, `CC(=O)O[C@H]1C(=O)[C@@]2(C)[C@H]([C@H](OC(=O)c3ccccc3)[C@]3(O)C[C@H](OC(=O)[C@H](O)[C@@H](NC(=O)c4ccccc4)c4ccccc4)C(C)=C1C3(C)C)[C@]1(OC(C)=O)CO[C@@H]1C[C@@H]2O` is recorded as 2.2 months (advanced urothelial cancer patients; 80 mg/m2 weekly, monotherapy).
For `Nc1ccn([C@@H]2O[C@H](CO)[C@@H](O)C2(F)F)c(=O)n1`, “overall tumour response rate” read 5.4% (metastatic pancreatic cancer patients; dose not given).
With `O=C1CCC(N2C(=O)c3ccccc3C2=O)C(=O)N1` (stereo not drawn) the IC50 was roughly 194 µM (TNF release; human whole blood; with: LPS).
Under “trough FEV1 change”, `CC(C)(C)NCC(O)c1ccc(O)c(CO)c1` (stereo not drawn) is recorded as 94 mL (COPD patients; 2 mg single, 6 h, day 1; reference: baseline, placebo-corrected).
With `CC1(C)S[C@@H]2[C@H](NC(=O)[C@H](N)c3ccccc3)C(=O)N2[C@H]1C(=O)O` the MIC was greater than 16 mg/L (Enterobacter cloacae; clinical isolate RKI-No_466/13).
The EC50 of `COC(=O)C1=C(C)NC(C)=C(C(=O)OC)C1c1c(-c2ccccc2OC)nc2sccn12` is reported as 1970 nM (negative inotropic effect; guinea pig, isolated left atrium).
`OCc1cc(C(O)CNCCCCCCOCCCCc2ccccc2)ccc1O` (stereo not drawn): “trough FEV1 change from baseline” 74 mL (COPD patients; inhaled, 25 µg single, 12 h post-dose; reference: placebo).
For `CC1(C)CCC(CN2CCN(c3ccc(C(=O)NS(=O)(=O)c4ccc(NCC5CCOCC5)c([N+](=O)[O-])c4)c(Oc4cnc5[nH]ccc5c4)c3)CC2)=C(c2ccc(Cl)cc2)C1`, “response rate (CR + CRi)” read 19% (human, AML; dose not given, monotherapy, sample B patients).
With `O=C(/C=C/c1ccc(O)c2c1[C@H](C(=O)O[C@H](Cc1ccc(O)c(O)c1)C(=O)O)[C@@H](c1ccc(O)c(O)c1)O2)O[C@H](Cc1ccc(O)c(O)c1)C(=O)O` the effective dose was 1 mg/kg (anticoagulant effect; rabbit LPS-induced DIC; intravenous).
`Cc1ccc(Nc2nccc(N(C)c3ccc4c(C)n(C)nc4c3)n2)cc1S(N)(=O)=O`: “median progression-free survival” 3 months (paediatric sarcoma patients; dose not given).
`NC(=O)c1nnn(Cc2cc(Cl)c(C(=O)c3ccc(Cl)cc3)c(Cl)c2)c1N`: “disease stabilization rate” 31% (human relapsed ovarian cancer; 6 months, single agent).
`Fc1ncccc1-c1ccc2c(n1)[nH]c1ccncc12` gave an IC50 of less than 0.002 µM (binding, measured: tau aggregates; progressive supranuclear palsy brain tissue).
`Nc1cc(C(F)(F)F)c(-c2cc(N3CCOCC3)nc(N3CCOCC3)n2)cn1`: “disease control rate” 41% (advanced solid tumour patients; 12.5 and 150 mg, daily dosing, sample B patients).
With `COC(=O)C1=C(C)NC(C)=C(C(=O)OC)C1c1c(-c2cc(OC)ccc2OC)nc2sc(Cl)cn12` the EC50 was 900 nM (negative inotropic effect; guinea pig, isolated left atrium).
`Nc1cc(C(F)(F)F)c(-c2nc(N3CCOCC3)nc(N3CCOCC3)n2)cn1` has a remaining activity of 79% (Mitogen-activated protein kinase kinase kinase 3 (MAP3K3, Homo sapiens, UniProt Q99759); enzyme activity; 10 µM; reference: untreated).
`COc1cc2c(Nc3ccc(Cl)c(Cl)c3F)ncnc2cc1OC[C@@H]1C[C@@H]2CN(C)C[C@@H]2C1` has a response rate of 57% (treatment-naive patients, advanced EGFR-mutant NSCLC; dose not given, phase II trial).
`CNC(C)C1CCC(N)C(OC2C(N)CC(N)C(OC3OCC(C)(O)C(NC)C3O)C2O)O1` (stereo not drawn) has an MIC of greater than 8 mg/L (Escherichia coli; clinical isolate RKI 131/08).
`COC(=O)C1=C(C)NC(C)=C(C(=O)OC)C1c1c(-c2c(OC)ccc(OC)c2[N+](=O)[O-])nc2sccn12` gave an EC50 of 360 nM (negative inotropic effect; guinea pig, isolated left atrium).
`Cc1cc(-c2nccc3c2ccn3CC(=O)Nc2ccc(-c3cnccn3)cn2)ccn1`: Ashcroft score “decreased” (mouse, bleomycin-induced pulmonary fibrosis; oral, 25 mg/kg once daily, days 14-28).
Under “objective response rate”, `COc1ccc(Cl)c(Nc2nc3ccccc3nc2NS(=O)(=O)c2cccc(NC(=O)C(C)(C)N)c2)c1` is recorded as 6% (human endometrial cancer patients; dose not given, phase II trial).
`CCN(c1cc(-c2ccc(CN3CCOCC3)cc2)cc(C(=O)NCc2c(C)cc(C)[nH]c2=O)c1C)C1CCOCC1`: “overall response rate” 29% (relapsed/refractory DLBCL, EZH2 mutant; dose not given).
For `COc1ccc(-n2nc(C(N)=O)c3c2C(=O)N(c2ccc(N4CCCCC4=O)cc2)CC3)cc1`, aPTT read “no effect” (dog; oral, 0.2 mg/kg).
Under “free fatty acid level”, `C1Cc2[nH]nc(-c3nnn[nH]3)c2C1` is recorded as “decreased” (human phase II trial; dose not given).
`COC(=O)C1=C(C)NC(C)=C(C(=O)OC)C1c1c(C)nc2sc(C)cn12` — result for “decrease in heart rate”: 33 ± 2.6% (guinea pig right atrium; 5x1.000e-05 M).
Under “trough FEV1 change from baseline”, `COc1ccc(CC(C)NCC(O)c2ccc(O)c(NC=O)c2)cc1` (stereo not drawn) is recorded as 44 mL (COPD patients; inhaled, 24 µg single, 12 h post-dose; reference: placebo).
`C=CC(=O)Nc1cc(Nc2nccc(-c3cn(C)c4ccccc34)n2)c(OC)cc1N(C)CCN(C)C` — result for “objective response rate”: 5% (human, NSCLC patients; 80 mg).

For quick reference, copied from above:
With `CC1(C)S[C@@H]2[C@H](NC(=O)[C@H](N)c3ccccc3)C(=O)N2[C@H]1C(=O)O` the MIC was greater than 16 mg/L (Enterobacter cloacae; clinical isolate RKI-No_466/13).
The EC50 of `COC(=O)C1=C(C)NC(C)=C(C(=O)OC)C1c1c(-c2ccccc2OC)nc2sccn12` is reported as 1970 nM (negative inotropic effect; guinea pig, isolated left atrium).
`OCc1cc(C(O)CNCCCCCCOCCCCc2ccccc2)ccc1O` (stereo not drawn): “trough FEV1 change from baseline” 74 mL (COPD patients; inhaled, 25 µg single, 12 h post-dose; reference: placebo).
For `CC1(C)CCC(CN2CCN(c3ccc(C(=O)NS(=O)(=O)c4ccc(NCC5CCOCC5)c([N+](=O)[O-])c4)c(Oc4cnc5[nH]ccc5c4)c3)CC2)=C(c2ccc(Cl)cc2)C1`, “response rate (CR + CRi)” read 19% (human, AML; dose not given, monotherapy, sample B patients).
